Measurements from different studies.
Each line is one published result; not all experiments were run side by side.

N#Cc1ccnc(N2C(=O)CC[C@H]2C(=O)N(c2cncc(F)c2)[C@H](C(=O)NC2CC(F)(F)C2)c2ccccc2Cl)c1
Cmax (human patients, plasma; oral, 500 mg once daily, consolidation cycle 1 day 1, mean, added: chemotherapy): 5000 ng/mL

CO[C@H]1C[C@@H]2CC[C@@H](C)[C@@](O)(O2)C(=O)C(=O)N2CCCC[C@H]2C(=O)O[C@H]([C@H](C)C[C@@H]2CC[C@@H](OCCO)[C@H](OC)C2)CC(=O)[C@H](C)/C=C(\C)[C@@H](O)[C@@H](OC)C(=O)[C@H](C)C[C@H](C)/C=C/C=C/C=C/1C
Cmax (human, plasma; oral, 30 mg, added: sunitinib 50 mg daily): 121 ng/mL

COc1cc(C(=O)O)ccc1NC(=O)[C@@H]1N[C@@H](CC(C)(C)C)[C@](C#N)(c2ccc(Cl)cc2F)[C@H]1c1cccc(Cl)c1F
Cmax (human, plasma; oral, 200 mg, steady state, added: venetoclax 400 mg): 3770 ng/mL

CC[C@@]1(O)C(=O)OCc2c1cc1n(c2=O)Cc2cc3c(CN(C)C)c(O)ccc3nc2-1
Cmax (human patients, plasma; oral, 4 mg, day 15, geometric mean, added: pazopanib 800 mg): 16.5 ng/mL

CCOc1ccc(Cc2cc([C@@H]3O[C@H](SC)[C@@H](O)[C@H](O)[C@H]3O)ccc2Cl)cc1
Cmax (human, plasma; oral, 300 mg, range of daily means): 230 to 307 ng/mL

C=CC(=O)N1CCC([C@@H]2CCNc3c(C(N)=O)c(-c4ccc(Oc5ccccc5)cc4)nn32)CC1
Cmax (human; oral, 480 mg, single dose, mean): 406 ng/mL

O=C(c1ccc(OCCN2CCCCC2)cc1)c1c(-c2ccc(O)cc2)sc2cc(O[C@@H]3O[C@H](C(=O)O)[C@@H](O)[C@H](O)[C@H]3O)ccc12
Cmax (human, plasma; oral, 60 mg raloxifene, baseline, with water): 18 nM

Cn1ncc(Cl)c1-c1cc(C(=O)N[C@H](CN)Cc2ccc(F)c(F)c2)oc1Cl
Cmax (human patients, plasma; oral, 10 mg, single dose, fasting): 9 to 10.5 ng/mL

CNCc1ccc(-c2[nH]c3cc(F)cc4c3c2CCNC4=O)cc1
Cmax (human cancer patients, plasma; intravenous, 18 mg/m2, day 1, added: temozolomide 200): 837 ng/mL

CNC(=O)c1c(C)oc2cc(Oc3ncnc4cc(OC)c(OC)cc34)ccc12
Cmax (human, plasma; oral, 5 mg, fed, high-fat meal): 114 ng/mL

C#Cc1cccc(Nc2ncnc3cc(OCCOC)c(OCCOC)cc23)c1
Cmax (human, plasma; oral, 75 mg once daily, steady state, geometric mean, added: ritonavir 200 mg once daily): 1680 ng/mL

CN1CC(=O)N2[C@H](c3ccc4c(c3)OCO4)c3[nH]c4ccccc4c3C[C@@H]2C1=O
Cmax (human; oral, 40 mg, free combination, EU-sourced, geometric mean, added: macitentan 10 mg): 598 ng/mL

NC(=S)NN=Cc1ncccc1N
Cmax (human, serum; oral, 100 mg): 2400 nM

Cc1nc(-c2ccc(OCC(C)C)c(C#N)c2)sc1C(=O)O
Cmax (human, plasma; oral, 40 mg, added: verinurad 5 mg): 517 ng/mL

CCN1CCN(c2ccc(Nc3cc(N(C)C(=O)Nc4c(Cl)c(OC)cc(OC)c4Cl)ncn3)cc2)CC1
Cmax (human patients, plasma; oral, 25 mg once daily, day 1, dose level -2, mean, added: imatinib 400 mg once daily): 12.6 ng/mL

O=C(c1cccnc1-c1ccncc1)N1CCC(O)(Cc2ccccc2)CC1
Cmax (healthy human, plasma; oral, 300 mg once daily, day 1, arithmetic mean): 2020 ng/mL

CCCCC1(CCCC)CN(c2ccccc2)c2cc(SC)c(OCC(=O)N[C@@H](C(=O)NCC(=O)O)c3ccccc3)cc2S(=O)(=O)C1
Cmax (LC-MS/MS; human, plasma; oral, 2.5 mg, single dose, before breakfast): 0.101 ng/mL

CCn1c(C(=O)c2cc(C)cc(C#N)c2)c(C(C)C)c(=O)[nH]c1=O
Cmax (healthy humans, plasma; oral, 75 to 600 mg single dose, range of dose-group means): 440 to 1250 ng/mL

Some of these lines once more:
Cc1nc(-c2ccc(OCC(C)C)c(C#N)c2)sc1C(=O)O
Cmax (human, plasma; oral, 40 mg, added: verinurad 5 mg): 517 ng/mL

N#Cc1ccnc(N2C(=O)CC[C@H]2C(=O)N(c2cncc(F)c2)[C@H](C(=O)NC2CC(F)(F)C2)c2ccccc2Cl)c1
Cmax (human patients, plasma; oral, 500 mg once daily, consolidation cycle 1 day 1, mean, added: chemotherapy): 5000 ng/mL

CC[C@@]1(O)C(=O)OCc2c1cc1n(c2=O)Cc2cc3c(CN(C)C)c(O)ccc3nc2-1
Cmax (human patients, plasma; oral, 4 mg, day 15, geometric mean, added: pazopanib 800 mg): 16.5 ng/mL
